Results of several laboratories.
Protocols differ between the studies behind these lines. ± gives the spread as reported.

SMILES	test	system	conditions	tissue uptake
CC(C)C[C@@H](NC(=O)[C@@H](CCCNC(=N)N)NC(=O)[C@@H](Cc1c[nH]cn1)NC(=O)[C@@H](Cc1c[nH]c2ccccc12)NC(=O)[C@@H](Cc1c[nH]cn1)NC(=O)[C@@H](Cc1ccccc1)NC(=O)[C@H](NC(=O)[C@@H](Cc1ccc(O)cc1)NC(=O)CNC(=O)CNC(=O)CCOCCOCCOCCNC(=O)CN1CCN(CC(=O)O)CCN(CC(=O)O)CC1)[C@H](C)O)C(=O)N[C@H](CC(N)=O)C(=O)N1CCC[C@@H]1C(=O)O [gallium-68 labelled]	γ-counting	male C57BL/6 mice, tumor	intravenous, 1.85 MBq, 60 min	5 ± 1.24 %ID/g
COc1cc2ccnc(Cc3ccc(O[11CH3])c(OC)c3)c2cc1OC	–	Sprague-Dawley rats, blood	intravenous, 0.08333 h	0.246 ± 0.015 %ID/g
N=C(N)NCc1ccc(C(=O)NCCCC[C@H](NC(=O)N[C@@H](CCC(=O)O)C(=O)O)C(=O)O)cc1[211At]	–	SCID mouse, PC-3 xenografts, heart	21 h	0.4 ± 0.11 %ID/g
O=C(O)CC[C@H](NC(=O)O[C@@H](CCCCNC(=O)c1ccc([18F])cc1)C(=O)O)C(=O)O	–	mouse, PC-3 PIP/flu xenografts, muscle	90 min	0.06 ± 0.01 %ID/g
CN[C@](C)(C[18F])C(=O)O	–	SCID mouse U87 xenograft, kidney	30 min, post injection	9.2 ± 2.1 %ID/g
CCNc1cc2[o+]c3cc(NCC)c(C)cc3c(-c3ccccc3C(=O)OCCOCC[18F])c2cc1C	–	rat, mandibular gland	60 min	2.01 ± 0.31 %ID/g
N=C(N)NCc1ccc(C(=O)NCCCC[C@H](NC(=O)CCCCCCC(=O)NCCCC[C@H](NC(=O)N[C@@H](CCC(=O)O)C(=O)O)C(=O)O)C(=O)O)cc1[211At]	–	SCID mouse, PC-3 xenografts, thyroid	1 h	0.51 ± 0.16 %ID/g
C[S]1CC[S]2CC[P](CO)(CO)[99Tc+]12.[C-]#[O+].[C-]#[O+].[C-]#[O+]	–	CF-1 mice, female, blood	intravenous, 4 h	0.17 %ID/g
N=C(N)NCc1ccc(C(=O)NCCCC[C@H](NC(=O)N[C@@H](CCC(=O)O)C(=O)O)C(=O)O)cc1[131I]	–	SCID mouse, PC-3 xenografts, bone	2 h	0.31 ± 0.04 %ID/g
O=C(c1ccc(F)cc1)C1CCN(C2Cc3c(cccc3OCC[18F])CC2O)CC1 (single isomer, unassigned; (-))	–	Sprague-Dawley rat, male, pancreas	intravenous, dose not given, 60 min	1.32 ± 0.346 %ID/g
N=C(N)NCc1ccc(C(=O)NCCCC[C@H](NC(=O)CCCCCCC(=O)NCCCC[C@H](NC(=O)N[C@@H](CCC(=O)O)C(=O)O)C(=O)O)C(=O)O)cc1[131I]	–	SCID mouse, PC-3 xenografts, stomach	1 h	0.73 ± 0.26 %ID/g
C=Cc1cc(O)cc2nc(-c3ccc(O)c([76Br])c3)oc12	–	female C57BL/6 mouse, blood	6 h, high dose	0.09 ± 0.01 %ID/g
CCCC[C@H](NC(=O)CN1CCC(NC(=O)CN2CCC(NC(=O)CN3CCN(CC(=O)O)CCN(CC(=O)O)CCN(CC(=O)O)CC3)CC2)CC1)C(=O)N[C@H]1CC(=O)NCCCC[C@@H](C(N)=O)NC(=O)[C@H](Cc2c[nH]c3ccccc23)NC(=O)[C@H](CCCNC(=N)N)NC(=O)[C@@H](Cc2ccccc2)NC(=O)[C@H](Cc2c[nH]cn2)NC1=O [gallium-68 labelled]	–	C57BL/6J mice male B16-F10 tumour, intestine	1 h post injection, unblocked	0.7 ± 0.5 %ID/g
COc1cc2ncnc(Oc3cccc(N[11C](=O)Nc4cc(C(C)(C)C(F)(F)F)on4)c3)c2cc1OC	–	Balb/c nude mouse, female, A375 melanoma xenograft, liver	6.6 MBq, 30 min	19.1 ± 0.71 %ID/g

For quick reference, copied from above:
SMILES	test	system	conditions	tissue uptake
CC(C)C[C@@H](NC(=O)[C@@H](CCCNC(=N)N)NC(=O)[C@@H](Cc1c[nH]cn1)NC(=O)[C@@H](Cc1c[nH]c2ccccc12)NC(=O)[C@@H](Cc1c[nH]cn1)NC(=O)[C@@H](Cc1ccccc1)NC(=O)[C@H](NC(=O)[C@@H](Cc1ccc(O)cc1)NC(=O)CNC(=O)CNC(=O)CCOCCOCCOCCNC(=O)CN1CCN(CC(=O)O)CCN(CC(=O)O)CC1)[C@H](C)O)C(=O)N[C@H](CC(N)=O)C(=O)N1CCC[C@@H]1C(=O)O [gallium-68 labelled]	γ-counting	male C57BL/6 mice, tumor	intravenous, 1.85 MBq, 60 min	5 ± 1.24 %ID/g
C=Cc1cc(O)cc2nc(-c3ccc(O)c([76Br])c3)oc12	–	female C57BL/6 mouse, blood	6 h, high dose	0.09 ± 0.01 %ID/g
